Assay results gathered from unrelated publications.
Protocols differ between the studies behind these lines.

For `CCCCCn1cc(C(=O)c2ccc(C)c3ccccc23)c2ccccc21`, the ED50 was 0.61 mg/kg (locomotor depression; male ND4 Swiss-Webster mice; intraperitoneal).
`O=C(O)/C=C/C(=O)O.Oc1cccc2[nH]cc(CCNC3CCCCC3)c12` gave an ED50 of > 30 mg/kg (head twitch response; C57BL/6J mice; subcutaneous, 30 min session).
`CCCCCn1cc(C(=O)c2ccc(OC)cc2)c2ccccc21` has an ED50 of 5.54 mg/kg (locomotor depression; male ND4 Swiss-Webster mice; intraperitoneal).
`COC(=O)[C@H]1[C@@H](c2ccc(Cl)c(C)c2)C[C@@H]2CC[C@H]1N2C` has an ED50 of 0.14 to 7.4 mg/kg (nicotine-induced hypothermia, antagonist; mice; together with: nicotine 2.5 mg/kg sc).
`C[C@@H]1NC(C)(C)CO[C@@]1(O)c1ccc2ccccc2c1` gave an ED50 of 0.034 to 0.054 mg/kg (nicotine antinociception, antagonist, tail-flick test; mice; 15 min pretreatment, together with: nicotine 2.5 mg/kg sc).
For `C=CCN1CC[C@]23c4c5ccc(O)c4O[C@H]2[C@H](NC(=O)CCCCCCCCCCC)CC[C@@]3(O)[C@H]1C5`, the ED50 was > 10 mg/kg (tail flick analgesia, radiant heat tail flick; CD-1 mice; subcutaneous).
The ED50 of `C[C@@H]1NC(C)(C)CO[C@@]1(O)c1cccc2ccccc12` is reported as 0.034 to 0.054 mg/kg (nicotine antinociception, antagonist, tail-flick test; mice; 15 min pretreatment, together with: nicotine 2.5 mg/kg sc).
`CCCCCc1cc(O)c2c(c1)OC(C)(C)[C@@H]1CCC(C)=C[C@@H]21` gave an ED50 of 2.15 mg/kg (drug discrimination; C57BL/6J mice, male; intraperitoneal, 30 min pretreatment).
`CCCCCn1cc(C(=O)c2ccc(CC)c3ccccc23)c2ccccc21` gave an ED50 of 0.78 mg/kg (locomotor depression; male ND4 Swiss-Webster mice; intraperitoneal).
With `CCCNCCc1c[nH]c2cccc(O)c12.CCCNCCc1c[nH]c2cccc(O)c12.O=C(O)/C=C/C(=O)O` the ED50 was 2.9 to 3.3 mg/kg (head twitch response; C57BL/6J mice; subcutaneous, 30 min session).
The ED50 of `Cc1ccc([C@H]2C[C@@H]3CC[C@H]([C@H]2c2cc(-c4ccc(Cl)cc4)no2)N3C)cc1` is reported as 0.013 to 0.15 mg/kg (nicotine conditioned place preference, antagonist; mice; together with: nicotine 0.5 mg/kg sc).
`CC[C@H](C)[C@H](NC(=O)[C@H](CCCNC(=N)N)NC(=O)[C@H](Cc1ccc(O)cc1)NC(=O)[C@H](Cc1ccc(O)cc1)NC(=O)[C@H](CCCNC(=N)N)NC(C)=O)C(=O)N[C@@H](CCCCN)C(N)=O` has an ED50 of 0.008 nmol (mechanical allodynia, von Frey; CCI neuropathic mice; intrathecal, 30 min).
`C=CCNCCc1c[nH]c2cccc(O)c12.C=CCNCCc1c[nH]c2cccc(O)c12.O=C(O)/C=C/C(=O)O` gave an ED50 of 1.1 mg/kg (head twitch response; C57BL/6J mice; subcutaneous, 30 min session).

Repeated from above:
`C[C@@H]1NC(C)(C)CO[C@@]1(O)c1ccc2ccccc2c1` gave an ED50 of 0.034 to 0.054 mg/kg (nicotine antinociception, antagonist, tail-flick test; mice; 15 min pretreatment, together with: nicotine 2.5 mg/kg sc).
For `C=CCN1CC[C@]23c4c5ccc(O)c4O[C@H]2[C@H](NC(=O)CCCCCCCCCCC)CC[C@@]3(O)[C@H]1C5`, the ED50 was > 10 mg/kg (tail flick analgesia, radiant heat tail flick; CD-1 mice; subcutaneous).
